Experimental data pooled from the literature.
± gives the spread as reported.
Cell line: HaCaT

| Compound | test | setting | quantity | result |
| --- | --- | --- | --- | --- |
| O=C1c2ccc(O)cc2OC1(O)Cc1ccc(O)c(O)c1 (centres unmarked) | cell growth or viability, MTT | 72 h | IC50 | > 400 µM |
| CCCCCCCCCC(=O)N[C@@H](Cc1ccccc1)C(=O)N[C@@H](Cc1ccccc1)C(=O)N[C@@H](Cc1ccccc1)C(=O)N[C@@H](Cc1ccccc1)C(=O)N[C@@H](CCCCN)C(=O)N[C@@H](CCCCN)C(=O)N[C@@H](CCCCN)C(=O)N[C@@H](CCCCN)C(=O)N[C@@H](CCCCN)C(N)=O | cytotoxicity |  | IC50 | > 150 µg/mL |
| CCOP(=O)(OCC)C(Cc1ccccc1F)Nc1ccccc1 (centres unmarked) | cell growth or viability, MTT | 48 h | IC50 | 61.8 µM |
| CCCCCCCCCCCCCC(=O)N[C@@H](CCCCN)C(=O)N[C@@H](CCCCN)C(=O)N[C@@H](CCCCN)C(=O)N[C@@H](CCCCN)C(=O)N[C@@H](CCCCN)C(N)=O | cytotoxicity |  | IC50 | 21.4 µg/mL |
| CCOP(=O)(OCC)C(Cc1ccc(F)cc1)Nc1ccc(Cl)cc1 (centres unmarked) | cell growth or viability, MTT | 48 h | IC50 | > 100 µM |
| CCCCCCCCCCCCCCCC(=O)N[C@@H](CCCCN)C(=O)N[C@@H](CCCCN)C(=O)N[C@@H](CCCCN)C(=O)N[C@@H](CCCCN)C(=O)N[C@@H](CCCCN)C(N)=O | cytotoxicity |  | IC50 | 17.6 µg/mL |
| CSCC[C@H](N)C(=O)N[C@@H](Cc1ccc(O)cc1)C(=O)N[C@@H](Cc1ccccc1)C(=O)O | CCK-8 | 10 µg/mL, 72 h, 0.4 % serum | viability | 126 ± 3.23% |
| CCOP(=O)(OCC)C(Cc1cc(F)c(F)c(F)c1)Nc1ccccc1 (centres unmarked) | cell growth or viability, MTT | 48 h | IC50 | 33.2 µM |
| O=c1oc2cc(O)cc3c2c2c(cc(O)cc12)CC3 | cell growth or viability, MTT | 48 h | IC50 | 113 µM |
| CC1(C)C=Cc2c(O)cc(/C=C/c3ccc(O)cc3O)cc2O1 | cell growth or viability, MTT | 72 h | IC50 | 80 µM |
| CCn1cc(/C=C/c2sc3ccccc3[n+]2CC)c2ccccc21 | cell growth or viability, MTT | 24 h | IC50 | 3.31 µM |
| CCCCCCCCCCCCCCCCCC(=O)N[C@@H](CCCN)C(=O)N[C@@H](CCCN)C(=O)N[C@@H](CCCN)C(=O)N[C@@H](CCCN)C(=O)N[C@@H](CCCN)C(N)=O | cytotoxicity |  | IC50 | 37.1 µg/mL |
| Cc1c(C)c(C)[c-](C)c1C.[C-]#[O+].[C-]#[O+].[C-]#[O+].[Cl-].[Cl-].[Cl-].[Ir+3].[Re+].c1cnc(-c2ncccn2)nc1 | cell growth or viability, MTT | 48 h | IC50 | 235 µM |
| CCCCN(CCCC)CC(O)COc1c2ccoc2c(OC)c2oc(CC)cc(=O)c12 (centres unmarked) | cell growth or viability, MTT | 72 h | IC50 | 43.4 µM |

Some of these lines once more:
| Compound | test | setting | quantity | result |
| --- | --- | --- | --- | --- |
| CCOP(=O)(OCC)C(Cc1ccccc1F)Nc1ccccc1 (centres unmarked) | cell growth or viability, MTT | 48 h | IC50 | 61.8 µM |
| O=c1oc2cc(O)cc3c2c2c(cc(O)cc12)CC3 | cell growth or viability, MTT | 48 h | IC50 | 113 µM |
